Assay results pooled from the literature.
Compare with care: the assays were run in different laboratories. ± marks the error that the study gave. Values after ≈ are worked out from the molar mass of the structure shown.

`CCN(Cc1ccccc1)C(=O)CCc1nc(CN2CCN(C(=O)Cc3ccc(OC)c(OC)c3)CC2)no1` has an activation V1/2 of -49.9 ± 14.6 mV (KCNQ2 (Homo sapiens, UniProt O43526); potassium current, whole-cell patch clamp; CHO, stable; 3 µM).
For `CCCCCCCCCCCCCCCC(=O)N[C@@H](CCC(=O)NCCOCCOCCC(=O)NCCOCCOCCC(=O)NCCCC[C@H](NC(=O)[C@H](CC(=O)O)NC(=O)[C@H](CC(C)C)NC(=O)[C@H](Cc1ccc(O)cc1)NC(=O)[C@H](CCCCN)NC(=O)[C@H](CO)NC(=O)[C@H](Cc1ccc(O)cc1)NC(=O)[C@H](CC(=O)O)NC(=O)[C@H](CO)NC(=O)[C@@H](NC(=O)[C@H](Cc1ccccc1)NC(=O)[C@@H](NC(=O)CNC(=O)[C@H](CCC(N)=O)NC(=O)[C@@H](CO)NC(=O)[C@@H](N)Cc1c[nH]cn1)[C@@H](C)O)[C@@H](C)O)C(=O)N[C@@H](CCCNC(=N)N)C(=O)N[C@@H](CCCNC(=N)N)C(=O)N[C@@H](C)C(=O)N[C@@H](CCC(N)=O)C(=O)N[C@@H](CC(=O)O)C(=O)N[C@@H](Cc1ccccc1)C(=O)N[C@H](C(=O)N[C@@H](CCC(N)=O)C(=O)N[C@@H](Cc1c[nH]c2ccccc12)C(=O)N[C@@H](CC(C)C)C(=O)N[C@@H](CC(C)C)C(=O)N[C@@H](CC(N)=O)C(=O)N[C@H](C(=O)NCC(=O)NCC(=O)N1CCC[C@H]1C(=O)N[C@@H](CO)C(=O)N[C@@H](CO)C(=O)NCC(=O)N[C@@H](C)C(=O)N1CCC[C@H]1C(=O)N1CCC[C@H]1C(=O)N1CCC[C@H]1C(=O)N[C@@H](CO)C(N)=O)[C@@H](C)O)C(C)C)C(=O)O`, “serum bilirubin and ALP” read “decreased” (Sprague-Dawley rat ANIT model; dose not given).
With `COc1ccc([N+](=O)[O-])cc1NC(=O)CCC(=O)[O][Zn][O]C(=O)CCC(=O)Nc1cc([N+](=O)[O-])ccc1OC.c1ccncc1` the inhibition was 68.3% (ABTS scavenging; 125 µg/mL).
With `CCCCCCCCC(=O)NCc1ccc(O)c(OC)c1` the IC50 was 0.0201 µg/mL (≈ 0.0686 µM) (mAb 4-AT4; antibody binding, indirect competitive ELISA; together with: coating antigen hapten 1-OVA).
The tracer uptake of `CN[C@](C)(C[18F])C(=O)O` is reported as 2.8 %ID/g (A549 tumour model; host not given, liver; 1 h, tumour-bearing).
The protein level of `CC(C)CC(O)(CC(C)C)c1cn(C(=O)N2CCCC2)nn1` is reported as 1.08 ± 0.15 (mouse T-cells; SILAC proteomics, refers to: LARP1; 1 nM, 6 h, unit not given; baseline: DMSO).
`CCCCCCCCN(CCC(=O)Nc1ccccc1)C(=O)c1ccccn1` has a maximum survival of 194 days (Lmna G609G/G609G mouse; intraperitoneal, 40 mg/kg).
`CC(C)C[C@H](NC(=O)CNC(=O)[C@H](CCC(=O)O)NC(=O)[C@H](CCCCN)NC(=O)[C@H](CC(C)C)NC(=O)[C@H](C)NC(=O)[C@H](C)NC(=O)CNC(=O)[C@H](C)NC(=O)[C@H](CCCCN)NC(=O)[C@H](CCC(=O)O)NC(=O)[C@H](CC(C)C)NC(=O)[C@H](CCCCN)NC(=O)[C@H](CCCCN)NC(=O)[C@H](CC(C)C)NC(=O)[C@H](CC(C)C)NC(=O)[C@H](CCCCN)NC(=O)[C@H](Cc1c[nH]c2ccccc12)NC(=O)[C@@H](N)CCCCN)C(=O)N[C@@H](CC(C)C)C(=O)N[C@@H](CCCCN)C(=O)N[C@@H](C)C(=O)NCC(=O)N1CCC[C@H]1C(=O)N[C@@H](C)C(=O)N[C@@H](CC(C)C)C(=O)N[C@@H](C)C(=O)N[C@@H](CC(C)C)C(=O)N[C@@H](CC(C)C)C(=O)NCC(=O)N[C@@H](C)C(=O)N[C@@H](C)C(=O)N[C@@H](C)C(=O)N[C@@H](C)C(=O)N[C@@H](CC(C)C)C(=O)N[C@@H](C)C(=O)N[C@@H](CCCCN)C(N)=O` — result for “static quenching constant”: 140 M⁻¹ (POPC/POPG 1:1 vesicles).
`CC[C@H](C)[C@H](NC(=O)[C@@H](NC(=O)[C@H](CC(=O)O)NC(C)=O)[C@@H](C)O)C(=O)N[C@@H](CCCNC(=N)N)C(=O)N[C@@H](CC(C)C)C(=O)N[C@@H](CC(C)C)C(=O)N[C@@H](Cc1ccccc1)C(=O)N[C@@H](CCC(N)=O)C(=O)N[C@@H](CC(C)C)C(=O)N[C@@H](CCSC)C(=O)N[C@@H](CCCNC(=N)N)C(=O)N1CCC[C@H]1C(=O)N1CCC[C@H]1C(=O)N[C@@H](CC(N)=O)C(=O)N[C@@H](CCSC)C(=O)N[C@H](C(=O)N1CCC[C@H]1C(=O)N[C@@H](C)C(=O)N[C@H](C(=O)N[C@@H](CC(N)=O)C(=O)N[C@@H](C)C(N)=O)C(C)C)[C@@H](C)O`: “α4β7− CCR9− cells” 10% (refers to: HA-23 tetramer; antigen-experienced tetramer+ CD4 T cells, healthy adults, HLA-DRB1*0101; dose not given).
`CCOc1cncc(-c2ccc(NC(=O)C3(c4ccnc(NS(=O)(=O)C5CC5)n4)CCOCC3)nc2)n1` gave a selectivity ratio of 49 (enzyme activity, inhibitor, RapidFire mass spectrometry; rat; baseline: CTPS1 over CTPS2).
For `CCN(CCCCOc1ccc(CCC(=O)N2CCC(Cc3ccccc3)CC2)cc1OC)Cc1ccccc1`, protein level read “decreased” (decrease, ELISA, refers to: Aβ1–42; APP/PS1 transgenic mice, cerebral cortex; dose not given).
The bound fraction of `NCCCC[C@H](NC(=O)CNC(=O)CNC(=O)[C@H](CCCCN)NC(=O)CNC(=O)CNC(=O)CNC(=O)[C@H](CCCCN)NC(=O)CNC(=O)CNC(=O)[C@H](CCCCN)NC(=O)CNC(=O)CNC(=O)CNC(=O)[C@H](CCCCN)NC(=O)CNC(=O)CNC(=O)[C@H](CCCCN)NC(=O)CNC(=O)CNC(=O)CNC(=O)[C@H](CCCCN)NC(=O)CNC(=O)CNC(=O)[C@H](CCCCN)NC(=O)[C@H](CO)NC(=O)[C@H](Cc1ccc(O)cc1)NC(=O)CNC(=O)CNC(=O)CN)C(=O)NCC(=O)O` is reported as 21% (binding; AA amyloid mouse liver homogenate; 1 h, room temperature).
For `C[n+]1ccc(C(=O)NC2CCC3(O)C4Cc5ccc(O)c6c5C3(CC[N+]4(C)CC3CC3)C2O6)cc1` (stereo not drawn), “gastrointestinal transit time” read 173 ± 3 min (Swiss Webster mice; subcutaneous, 10 mg/kg, up to 6 h, together with: carmine red oral).
Under “tumour growth inhibition”, `Cc1cc(Nc2nc(C[C@@]3(C(=O)O)CCN(Cc4cccc(Cl)c4F)[C@H](C)C3)cc(C)c2F)[nH]n1` is recorded as 97% (mouse, NCI-H446 xenograft; oral, 20 mg/kg once daily, monotherapy).
Under “DPPH radical scavenging”, `Fc1ccc(N2CCN(Cc3nnc(-c4ccccc4)o3)CC2)cc1` is recorded as 31.3 ± 2.4% (methanol; 25 µM).
For `C[C@]12CC[C@H](OC(=O)NC3CCNCC3)C[C@H]1CC[C@@H]1[C@@H]2CC[C@]2(C)[C@@H](c3ccc(=O)oc3)CC[C@]12O`, “tumour mass decrease” read 84.8% (mouse HepG2 xenograft; intravenous, 2 mg/kg every other day, 3 weeks).
The binding ratio of `CC(C)[C@H](N)C(=O)N[C@@H](Cc1ccc(O)cc1)C(=O)N[C@@H](CCCCN)C(=O)N[C@H](C(=O)N[C@@H](CCCCN)C(=O)N[C@H](C(=O)N[C@@H](CCCCN)C(=O)N[C@H](C(=O)N[C@@H](CCCCN)C(=O)N[C@H](C(=O)N[C@@H](CCCCN)C(=O)N[C@H](C(=O)N[C@@H](CCCCN)C(=O)N[C@H](C(=O)N[C@@H](CCCCN)C(=O)N[C@H](C(=O)N[C@@H](CCCCN)C(=O)N[C@H](C(=O)O)[C@@H](C)O)C(C)C)[C@@H](C)O)C(C)C)[C@@H](C)O)C(C)C)[C@@H](C)O)C(C)C` is reported as 0.35 (rVλ6Wil fibrils; 1 h, room temperature, 0.05% Tween-20; baseline: 1 M NaCl over PBS).
For `N=C(N)NCCC[C@@H]1NC(=O)[C@H](CCCCNC(=O)CC[C@H](NC(=O)CCOCCOCCOCCOCCNC(=O)CC[C@H](NC(=O)CN2CCN(CC(=O)O)CCN(CC(=O)O)CCN(CC(=O)O)CC2)C(=O)NCCOCCOCCOCCOCCC(=O)N[C@@H](CCC(=O)NCCCC[C@@H]2NC(=O)[C@@H](Cc3ccccc3)NC(=O)[C@H](CC(=O)O)NC(=O)CNC(=O)[C@H](CCCNC(=N)N)NC2=O)C(=O)NCCCC[C@@H]2NC(=O)[C@@H](Cc3ccccc3)NC(=O)[C@H](CC(=O)O)NC(=O)CNC(=O)[C@H](CCCNC(=N)N)NC2=O)C(=O)NCCCC[C@@H]2NC(=O)[C@@H](Cc3ccccc3)NC(=O)[C@H](CC(=O)O)NC(=O)CNC(=O)[C@H](CCCNC(=N)N)NC2=O)NC(=O)[C@@H](Cc2ccccc2)NC(=O)[C@H](CC(=O)O)NC(=O)CNC1=O` [indium-111 labelled], the tissue uptake was 8.89 ± 1.28 %ID/g (female athymic nude mice, kidney; intravenous, 3 µCi, 0.5 h, U-87 MG glioma xenograft).
`CCCC[C@H](NC(=O)CNC(=O)CNC(=O)c1ccc(NN)nc1)C(=O)N[C@H]1CC(=O)NCCCC[C@@H](C(N)=O)NC(=O)[C@H](Cc2c[nH]c3ccccc23)NC(=O)[C@H](CCCNC(=N)N)NC(=O)[C@@H](Cc2ccccc2)NC(=O)[C@H](Cc2c[nH]cn2)NC1=O` [technetium-99m labelled] gave a tissue uptake of 0.5 ± 0.21 %ID/g (C57 mouse, B16/F1 melanoma-bearing, pancreas; intravenous, 0.5 h).
`C[C@H](NC(=O)[C@H](CCC(N)=O)NC(=O)[C@H](C)NC(=O)[C@H](CCCCN)NC(=O)[C@H](CCC(N)=O)NC(=O)[C@H](C)NC(=O)[C@H](CCCCN)NC(=O)[C@H](CCC(N)=O)NC(=O)[C@H](C)NC(=O)[C@H](CCC(N)=O)NC(=O)[C@H](CCCCN)NC(=O)[C@H](C)NC(=O)[C@H](CCC(N)=O)NC(=O)[C@H](CCCCN)NC(=O)[C@H](C)NC(=O)[C@H](CCC(N)=O)NC(=O)[C@H](C)NC(=O)[C@H](CCCCN)NC(=O)[C@H](CCC(N)=O)NC(=O)[C@H](C)NC(=O)[C@H](CCCCN)NC(=O)[C@H](CO)NC(=O)[C@H](Cc1ccc(O)cc1)NC(=O)CNC(=O)CNC(=O)CN)C(=O)N[C@@H](CCCCN)C(=O)N[C@@H](CCC(N)=O)C(=O)N[C@@H](C)C(=O)N[C@@H](CCCCN)C(=O)N[C@@H](CCC(N)=O)C(=O)O` has a binding ratio of 0.11 (rVλ6Wil fibrils; 1 h, room temperature, 0.05% Tween-20; baseline: 1 M NaCl over PBS).
For `Cc1ccc(/C=C/C(=O)O)cc1-c1cc2c(cc1C)C(C)(C)CCC2(C)C`, “log2 fold change” read 0.061 (RNA sequencing, refers to: Cyp26a1 mRNA; rat, brain; dose not given, 24 h, single dose; baseline: vehicle).
For `O=C(O)CCn1c(=O)oc2cc(Cl)c(Cl)cc21`, the total protein was 142 ± 6 mg/L (rat, acute pancreatitis model, bronchoalveolar lavage fluid; dose not given, 6 h).
`COC[C@@H](NC(C)=O)C(=O)NCc1ccc(OCc2ccc(OC(F)(F)F)cc2)cc1` gave an ED50 of 8.3 mg/kg (maximal electroshock seizure test; mouse; ip, time of peak effect).
`N=C(N)NCCC[C@@H]1NC(=O)[C@H](CCCCNC(=O)CNC(=O)CNC(=O)CNC(=O)CC[C@H](NC(=O)CCOCCOCCOCCOCCNC(=O)CC[C@H](NC(=O)CN2CCN(CC(=O)O)CCN(CC(=O)O)CCN(CC(=O)O)CC2)C(=O)NCCOCCOCCOCCOCCC(=O)N[C@@H](CCC(=O)NCC(=O)NCC(=O)NCC(=O)NCCCC[C@@H]2NC(=O)[C@@H](Cc3ccccc3)NC(=O)[C@H](CC(=O)O)NC(=O)CNC(=O)[C@H](CCCNC(=N)N)NC2=O)C(=O)NCC(=O)NCC(=O)NCC(=O)NCCCC[C@@H]2NC(=O)[C@@H](Cc3ccccc3)NC(=O)[C@H](CC(=O)O)NC(=O)CNC(=O)[C@H](CCCNC(=N)N)NC2=O)C(=O)NCC(=O)NCC(=O)NCC(=O)NCCCC[C@@H]2NC(=O)[C@@H](Cc3ccccc3)NC(=O)[C@H](CC(=O)O)NC(=O)CNC(=O)[C@H](CCCNC(=N)N)NC2=O)NC(=O)[C@@H](Cc2ccccc2)NC(=O)[C@H](CC(=O)O)NC(=O)CNC1=O` [indium-111 labelled] has a tissue uptake of 0.13 ± 0.01 %ID/g (female athymic nude mice, heart; intravenous, 3 µCi, 72 h, U-87 MG glioma xenograft).

A few entries again:
`CCOc1cncc(-c2ccc(NC(=O)C3(c4ccnc(NS(=O)(=O)C5CC5)n4)CCOCC3)nc2)n1` gave a selectivity ratio of 49 (enzyme activity, inhibitor, RapidFire mass spectrometry; rat; baseline: CTPS1 over CTPS2).
For `CCN(CCCCOc1ccc(CCC(=O)N2CCC(Cc3ccccc3)CC2)cc1OC)Cc1ccccc1`, protein level read “decreased” (decrease, ELISA, refers to: Aβ1–42; APP/PS1 transgenic mice, cerebral cortex; dose not given).
The bound fraction of `NCCCC[C@H](NC(=O)CNC(=O)CNC(=O)[C@H](CCCCN)NC(=O)CNC(=O)CNC(=O)CNC(=O)[C@H](CCCCN)NC(=O)CNC(=O)CNC(=O)[C@H](CCCCN)NC(=O)CNC(=O)CNC(=O)CNC(=O)[C@H](CCCCN)NC(=O)CNC(=O)CNC(=O)[C@H](CCCCN)NC(=O)CNC(=O)CNC(=O)CNC(=O)[C@H](CCCCN)NC(=O)CNC(=O)CNC(=O)[C@H](CCCCN)NC(=O)[C@H](CO)NC(=O)[C@H](Cc1ccc(O)cc1)NC(=O)CNC(=O)CNC(=O)CN)C(=O)NCC(=O)O` is reported as 21% (binding; AA amyloid mouse liver homogenate; 1 h, room temperature).
For `C[n+]1ccc(C(=O)NC2CCC3(O)C4Cc5ccc(O)c6c5C3(CC[N+]4(C)CC3CC3)C2O6)cc1` (stereo not drawn), “gastrointestinal transit time” read 173 ± 3 min (Swiss Webster mice; subcutaneous, 10 mg/kg, up to 6 h, together with: carmine red oral).
